Experimental data from different studies.
Each line is one published result; not all experiments were run side by side. “And” joins repeats or separate records; there may be more than shown. ± marks the error that the study gave.
ampC: Beta-lactamase (ampC, Escherichia coli K-12, UniProt P00811)

| SMILES | target | assay | test system | conditions | Ki |
| --- | --- | --- | --- | --- | --- |
| N=C(N)NCCC[C@H](NC(=O)[C@H](Cc1c[nH]c2ccccc12)NC(=O)[C@H](CCCCN)NC(=O)CNC(=O)CCC(=O)NN=Cc1cc(C=NNC(=O)CCC(=O)NCC(=O)N[C@@H](CCCCN)C(=O)N[C@@H](Cc2c[nH]c3ccccc23)C(=O)N[C@@H](CCCNC(=N)N)C(N)=O)cc(C=NNC(=O)CCC(=O)NCC(=O)N[C@@H](CCCCN)C(=O)N[C@@H](Cc2c[nH]c3ccccc23)C(=O)N[C@@H](CCCNC(=N)N)C(N)=O)c1)C(N)=O | Tryptase beta-2 (TPSB2, Homo sapiens, UniProt P20231) | non-competitive inhibitor | – | – | 12 nM and 12.5 nM |
| CNC(=O)C1CCN(c2ccccc2NC(=O)c2ccc(-c3cc(O)ccc3C)c(C)n2)CC1 | Tyrosine-protein kinase TXK (TXK, Homo sapiens, UniProt P42681) | cell-free assay, TR-FRET | – | – | 4 nM |
| CC[C@H](C)[C@H](NC(=O)CN)C(=O)N[C@H](C(=O)N[C@@H](CC(N)=O)C(=O)N[C@H](C(=O)N[C@@H](CC(C)C)C(=O)N[C@@H](CCC(N)=O)C(=O)N[C@@H](CCCCN)C(=O)N[C@@H](Cc1ccc(O)cc1)C(=O)N[C@@H](Cc1ccc(O)cc1)C(=O)N[C@H]1CSSC[C@@H]2NC(=O)[C@H](CCCCN)NC(=O)[C@H](CCCNC(=N)N)NC(=O)CNC(=O)[C@H](CCCNC(=N)N)NC(=O)[C@H]([C@@H](C)O)NC(=O)[C@H](CO)NC(=O)[C@@H]3CSSC[C@H](NC(=O)[C@H](CCCNC(=N)N)NC(=O)CNC(=O)CNC(=O)[C@H](CCCNC(=N)N)NC(=O)[C@H](C(C)C)NC(=O)[C@H](CCCNC(=N)N)NC1=O)C(=O)N[C@@H](C)C(=O)N[C@@H](C(C)C)C(=O)N[C@@H](CC(C)C)C(=O)N[C@@H](CO)C(=O)N[C@@H](CSSC[C@@H](C(=O)N[C@@H](CCCNC(=N)N)C(=O)N[C@@H](C)C(=O)N[C@@H](CCCCN)C(=O)N[C@@H](C)C(N)=O)NC2=O)C(=O)N[C@@H](CC(C)C)C(=O)N1CCC[C@H]1C(=O)N[C@@H](CCCCN)C(=O)N[C@@H](CCC(=O)O)C(=O)N[C@@H](CCC(=O)O)C(=O)N[C@@H](CCC(N)=O)C(=O)N[C@@H]([C@@H](C)CC)C(=O)NCC(=O)N[C@@H](CCCCN)C(=O)N3)[C@@H](C)O)[C@@H](C)CC | Melanocyte-stimulating hormone receptor (MC1R, Homo sapiens, UniProt Q01726) | ligand displacement in cells | – | – | 45 nM |
| CC1(C)SC(C(CCc2ccccc2)B(O)O)N[C@H]1C(=O)O (stereo partly shown) | ampC | enzyme activity, inhibitor | – | pH 7.50, 25 °C, with: cephalothin 0.2 mM substrate | 380 ± 120 nM |
| CC(=O)N[C@@H](CCCNC(=N)N)C(=O)N[C@@H](Cc1ccc(O)cc1)C(=O)N[C@@H](CCCNC(=N)N)C(=O)N[C@@H](CC(C)C)C(=O)N[C@@H](CCCNC(=N)NC(=O)NCCCCN)C(=O)N[C@@H](Cc1ccc(O)cc1)C(N)=O | Neuropeptide Y receptor type 5 (NPY5R, Homo sapiens, UniProt Q15761) | ligand displacement, radioligand | – | – | > 5000 nM |
| C[C@]12COc3ccc(OCc4ccccc4)cc3[C@H]1CCN2 | Sigma non-opioid intracellular receptor 1 (SIGMAR1, Homo sapiens, UniProt Q99720) | cell-free assay, radioligand | – | – | 2.1 nM |
| CC[C@H](C)[C@H](NC(=O)[C@@H]1CSSC[C@H](NC(=O)[C@H](Cc2ccc(O)cc2)NC(=O)CN)C(=O)N[C@@H](CO)C(=O)N[C@@H](CCCNC(=N)N)C(=O)N[C@@H](CO)C(=O)N[C@@H](Cc2ccc(O)cc2)C(=O)N2CCC[C@H]2C(=O)N2CCC[C@H]2C(=O)N[C@@H](C(C)C)C(=O)N1)C(=O)N1CCC[C@H]1C(=O)N[C@@H](CC(=O)O)C(N)=O | Mannan-binding lectin serine protease 2 (Homo sapiens, UniProt O00187) | enzyme activity, inhibitor | – | – | 120 nM |
| COC(=O)N(C)[C@@H](Cc1ccccc1)C(=O)N[C@@H](Cc1ccccc1)C(=O)N[C@@H](Cc1c[nH]c2ccccc12)C(=O)N[C@@H](CCCNC(=N)N)C(=O)N[C@@H](CC(C)C)C(=O)N[C@@H](CCCNC(=N)N)C(=O)N[C@@H](CCCNC(=N)N)C(=O)N[C@H](C)C(=O)N[C@@H](CCCNC(=N)N)C(=O)N1CCC[C@H]1C(=O)N[C@@H](CCCCN)C(N)=O | Kappa-type opioid receptor (Oprk1, Rattus norvegicus, UniProt P34975) | ligand displacement, radioligand | – | – | 9.52 nM |
| COc1cncc(B(O)O)c1 | ampC | enzyme activity, inhibitor | – | with: CENTA | 3550 nM |
| CCCCc1ccc2c(c1)sc(=O)n2CCCCCCN1CCCCCC1 | Sigma non-opioid intracellular receptor 1 (Sigmar1, Rattus norvegicus, UniProt Q9R0C9) | binding, radioligand binding | rat liver membranes | with: [3H](+)-pentazocine 5 nM | 12 ± 0.7 nM |

Repeated from above:
| SMILES | target | assay | test system | conditions | Ki |
| --- | --- | --- | --- | --- | --- |
| CC[C@H](C)[C@H](NC(=O)[C@@H]1CSSC[C@H](NC(=O)[C@H](Cc2ccc(O)cc2)NC(=O)CN)C(=O)N[C@@H](CO)C(=O)N[C@@H](CCCNC(=N)N)C(=O)N[C@@H](CO)C(=O)N[C@@H](Cc2ccc(O)cc2)C(=O)N2CCC[C@H]2C(=O)N2CCC[C@H]2C(=O)N[C@@H](C(C)C)C(=O)N1)C(=O)N1CCC[C@H]1C(=O)N[C@@H](CC(=O)O)C(N)=O | Mannan-binding lectin serine protease 2 (Homo sapiens, UniProt O00187) | enzyme activity, inhibitor | – | – | 120 nM |
